Assay results pooled from the literature.
Each numbered part is a random draw from the data of one study; scales do not carry over between parts. Positions count from the first letter of the parent shown.

Study 1
Target: RNA binding protein fox-1 homolog 2, RRM domain, GST-SBP tag (RBFOX2, Homo sapiens, UniProt O43251-10, residues 100-194)
Technique: RNA Bind-n-Seq
Molecule type: RNA
Sample: in vitro
Concentration: 365 nM
Notes: natural RNA segment, single round, ends assumed
Reference: no-protein control
Reading: higher = stronger binding
Quantity: RBNS enrichment (R)
Target sequence (chain): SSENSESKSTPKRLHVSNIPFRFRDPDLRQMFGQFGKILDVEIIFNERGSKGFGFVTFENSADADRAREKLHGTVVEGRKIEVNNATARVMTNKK
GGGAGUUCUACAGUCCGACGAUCUCUCUCCCGACCCUGUUUGUGGUGUGUGCUGGCCUAUCAGGAUCUGGUUAGCCUUUGGAAUUUUUGUUGAUGAAAUCUCAAUACAUAAGGCGUCAACAGGGGGCUGGAGAUGGAAUUCUCGGGUGCCAA: 0.362
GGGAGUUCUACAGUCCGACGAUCGUGUGUUGAGGGACUGGUGUAUCCACUGGAAUAGUUGGUACUCUUGGAUGUGUUUUCUCACCAAGAUGAGCAAAGAAAGGUUUGCACAGAGGAGUGUGAAUGUGUGUUUGUGGAAUUCUCGGGUGCCAA: 1.91
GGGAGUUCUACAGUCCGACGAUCCUUGUCCUGCUCUCUUCAGGAGGCCCUGGUGUCAGGCAGGUUUGCCAGUGAAGACUUCUUGGGUAGUUUAGAUCCCAUGUCACCUCAGCUGAUAUUAUGGCAAGUGAUAUUGGAAUUCUCGGGUGCCAA: 0.432
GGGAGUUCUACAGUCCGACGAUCGGGGUGCAGCCUAAAAGGACCUAUGUCCUCACACCAUUGAAACCACUAGUUCUGUCCCCCCAGGAGACCUGGUUGUGUGUGUGUGAGUGGUUGACCUUCCUCCAUCCCCUUGGAAUUCUCGGGUGCCAA: 0.241
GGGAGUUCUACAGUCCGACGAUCUUCCUACCUGGGCUGGUUUCUUUUCUAUAGGCUGUCUUGUCUUUCUUAUGCUAACCACUAUUUUAAAAUGAAAGACAAAGCUCUUUCAGAAGUUUCUCUUGGCUGUUUUAUGGAAUUCUCGGGUGCCAA: 0.58
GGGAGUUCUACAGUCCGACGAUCAUUAGAAGCAAUUUGGAGUAAGUGUGUUUUGAUUUAGGCAGGGUAGCUUGGGAUACCUUUUUAAAAACACCAGAUAUUAAAAUGUCUGGCAAGGUUAGAAUCAGACUAGAUGGAAUUCUCGGGUGCCAA: 0.804
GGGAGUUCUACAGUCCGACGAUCUCUCCAUAGGACUUUCAUAUCAUCUGCUACAUUGAAAGAAUAAGAUAUACUGAUCCUAAAACCAAGGGAAUUAACAUUCCUAAUCCUGCACUAUGAACAGAACCCUGCCCUGGAAUUCUCGGGUGCCAA: 0.512
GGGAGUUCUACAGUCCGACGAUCUGGUUUAUUGGAACAUGUAAUAAAUAGGAGUAGUGAUGUAUUAAAACACAAGUAUUCAUUAAUGUUUUAUAUCUUCACUAAAAUUCUAUAGUUAUGAAACUAUCAAUCAAUGGAAUUCUCGGGUGCCAA: 0.515

Study 2
Target: tungstate, free oxyanion
Technique: microfluidic competitive inhibition
Sample: in vitro, cell-free expressed
Concentration: not given
Notes: derived from inhibition constants, unchanged parent 2230 nM
Reading: lower = stronger binding
Quantity: oxyanion analog dissociation constant
Parent: PafA, mature enzyme, eGFP fusion (Elizabethkingia meningoseptica, UniProt Q9KJX5); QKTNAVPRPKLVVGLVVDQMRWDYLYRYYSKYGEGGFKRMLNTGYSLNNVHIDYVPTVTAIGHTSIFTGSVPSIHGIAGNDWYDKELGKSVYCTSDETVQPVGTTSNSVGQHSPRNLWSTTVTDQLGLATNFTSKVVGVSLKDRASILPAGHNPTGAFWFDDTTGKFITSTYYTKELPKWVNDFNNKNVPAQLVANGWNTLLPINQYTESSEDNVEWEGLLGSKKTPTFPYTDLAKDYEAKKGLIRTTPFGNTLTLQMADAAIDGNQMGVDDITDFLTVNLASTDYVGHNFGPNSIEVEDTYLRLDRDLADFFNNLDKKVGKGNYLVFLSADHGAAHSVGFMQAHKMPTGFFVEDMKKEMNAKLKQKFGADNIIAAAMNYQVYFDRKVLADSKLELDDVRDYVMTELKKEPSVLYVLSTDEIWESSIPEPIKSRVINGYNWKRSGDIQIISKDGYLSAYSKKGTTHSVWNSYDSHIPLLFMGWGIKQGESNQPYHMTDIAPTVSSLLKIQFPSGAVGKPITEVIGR
I273G: 2.12 µM
V16G: 1.17 µM
H152V: 1.79 µM

Study 3
Target: CCNA1, cyclin fold, Cln2 fusion (human)
Technique: yeast growth competition, sequencing
Sample: yeast
Notes: weak parent motif
Reference: not given
Reading: higher = stronger binding
Quantity: normalised enrichment score
Parent: viral docking peptide; KGVKRKLFAEDSS
A9C: 0.826
K6T: 0.909
K4S: 0.861
K6N: 0.438
G2F: 1.36
L7V: 0.466
A9E: 1.32
K4W: -0.249
D11I: 0.686
S12I: 1.3
E10I: 0.52
A9Q: 1.26
A9G: 1.2
S12D: 1.19
S12A: 0.964
D11M: 0.852
S12C: 1.15
R5W: -0.105
K6P: 0.0886
S12H: 0.665
G2H: 1.1
L7T: 0.691
F8N: -0.0262

Study 4
Target: Interferon regulatory factor 5, full length, phosphomimetic (IRF5, Homo sapiens, UniProt Q13568-2, residues 1-514, S451D/S453D/S456D/S462D)
Technique: protein-binding microarray
Molecule type: double-stranded DNA, one strand shown
Sample: in vitro
Concentration: 940 nM top
Notes: 60-bp whole probe
Together with: salmon DNA 0.4 mg/ml
Reference: random background probes
Reading: higher = stronger binding
Quantity: fitted relative affinity
All sequences stand within: GCCTAGCAC … GTCTTGATTCGCTTGACGCTGCTG
GACGGACTGTGGTTTCGGGACGTGCTA: 2.68 z-score
TACGGTTTCGGTCTCGGGACGTGCTAG: 13 z-score
TTAGGTTTCCAACTGCTTTAGTGCTAG: 0.0885 z-score
GACGGACTGGGGTATCGCGACGTGCTA: -0.0393 z-score
TCACCTCTGTCATTTTCACTGTGCTAG: 1.42 z-score
TGAGGACTGGGGTTTCGGTTAGTGCTA: 6.04 z-score
GACGATTCCTGTTTCGAGACGTGCTAG: 1.95 z-score
TTAGATTTCGGGTATCTATTAGTGCTA: 1.74 z-score

Study 5
Target: UDP-N-acetylglucosamine--peptide N-acetylglucosaminyltransferase 110 kDa subunit (OGT, Homo sapiens, UniProt O15294)
UniProt O15294, sequence (whole entry, looked up): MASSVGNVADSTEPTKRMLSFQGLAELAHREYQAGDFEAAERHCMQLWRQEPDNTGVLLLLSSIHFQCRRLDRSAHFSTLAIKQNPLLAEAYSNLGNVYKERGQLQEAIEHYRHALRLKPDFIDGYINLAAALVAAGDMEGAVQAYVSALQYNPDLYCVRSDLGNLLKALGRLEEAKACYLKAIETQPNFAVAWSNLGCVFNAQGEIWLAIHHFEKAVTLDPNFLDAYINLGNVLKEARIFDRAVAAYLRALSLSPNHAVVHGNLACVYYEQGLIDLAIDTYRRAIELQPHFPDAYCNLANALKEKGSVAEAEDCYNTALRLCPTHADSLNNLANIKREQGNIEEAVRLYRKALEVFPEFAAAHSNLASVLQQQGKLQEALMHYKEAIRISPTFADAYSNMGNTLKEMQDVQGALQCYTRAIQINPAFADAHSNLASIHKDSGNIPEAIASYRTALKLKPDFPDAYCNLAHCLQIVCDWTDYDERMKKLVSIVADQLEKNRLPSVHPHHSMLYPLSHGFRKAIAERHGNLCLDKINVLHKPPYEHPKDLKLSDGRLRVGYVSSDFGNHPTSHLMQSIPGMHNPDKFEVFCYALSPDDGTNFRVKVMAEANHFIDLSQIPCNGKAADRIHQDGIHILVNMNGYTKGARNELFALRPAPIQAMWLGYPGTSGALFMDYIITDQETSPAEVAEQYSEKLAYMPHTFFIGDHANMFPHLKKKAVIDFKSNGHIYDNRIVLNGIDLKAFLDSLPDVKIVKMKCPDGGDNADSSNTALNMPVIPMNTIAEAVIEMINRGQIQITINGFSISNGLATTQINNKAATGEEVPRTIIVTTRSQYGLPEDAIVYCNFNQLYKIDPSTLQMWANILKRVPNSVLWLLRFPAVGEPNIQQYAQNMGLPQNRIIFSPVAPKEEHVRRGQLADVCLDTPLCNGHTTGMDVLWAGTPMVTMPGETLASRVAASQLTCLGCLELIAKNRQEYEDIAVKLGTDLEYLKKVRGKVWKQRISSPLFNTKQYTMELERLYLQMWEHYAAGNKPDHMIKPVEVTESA
Effect on: binding
Technique: phage display NGS
Molecule type: peptide
Notes: panning round 2
Reference: input library
Quantity: minimum log2 enrichment ratio
HPWPYIMEHEHHHYK: 2.84
HPTAHYHHQAIRHFQ: 1.98
IYLPIYQIQAQWPFK: 3.83

Mixed results
TMED10 (Homo sapiens, UniProt P49755)  interaction screen (TMED4 (Homo sapiens, UniProt Q7Z7H5); cross-linking MS; hits only): cross-linked

Repeated from above (study 3):
K4W: -0.249
D11I: 0.686
S12I: 1.3
E10I: 0.52
A9Q: 1.26
A9G: 1.2
